# Measurements collected from several papers.
# A part holds a random share of what one study measured. Values joined by “and” are separate records of one study, mostly repeats; a detail may differ.
# UniProt Q2M2I8, sequence (whole entry, looked up): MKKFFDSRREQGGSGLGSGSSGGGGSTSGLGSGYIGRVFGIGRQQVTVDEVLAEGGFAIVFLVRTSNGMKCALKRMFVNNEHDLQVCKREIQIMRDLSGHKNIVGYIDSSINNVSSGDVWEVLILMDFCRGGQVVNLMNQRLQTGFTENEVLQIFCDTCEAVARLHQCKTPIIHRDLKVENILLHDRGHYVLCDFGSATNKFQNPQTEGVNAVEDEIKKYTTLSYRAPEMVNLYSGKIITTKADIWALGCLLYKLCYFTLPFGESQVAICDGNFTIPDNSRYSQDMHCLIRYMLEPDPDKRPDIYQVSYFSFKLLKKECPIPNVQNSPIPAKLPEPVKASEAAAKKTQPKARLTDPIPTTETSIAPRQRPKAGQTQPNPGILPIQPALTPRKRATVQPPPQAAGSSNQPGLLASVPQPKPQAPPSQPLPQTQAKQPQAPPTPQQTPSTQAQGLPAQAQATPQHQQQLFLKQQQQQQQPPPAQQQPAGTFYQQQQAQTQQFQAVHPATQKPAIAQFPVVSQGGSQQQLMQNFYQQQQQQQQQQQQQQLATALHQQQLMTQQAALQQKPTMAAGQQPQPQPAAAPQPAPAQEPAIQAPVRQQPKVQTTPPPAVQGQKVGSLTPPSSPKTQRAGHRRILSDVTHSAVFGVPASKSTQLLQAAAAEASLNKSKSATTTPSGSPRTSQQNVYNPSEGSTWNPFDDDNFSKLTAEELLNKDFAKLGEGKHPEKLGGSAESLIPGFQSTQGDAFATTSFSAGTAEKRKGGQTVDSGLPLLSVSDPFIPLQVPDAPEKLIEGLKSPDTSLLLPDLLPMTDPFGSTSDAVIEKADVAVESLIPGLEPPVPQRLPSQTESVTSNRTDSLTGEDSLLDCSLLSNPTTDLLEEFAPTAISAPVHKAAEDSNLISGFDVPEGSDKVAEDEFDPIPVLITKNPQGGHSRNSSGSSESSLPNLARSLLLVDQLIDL
# UniProt P11362, sequence (whole entry, looked up): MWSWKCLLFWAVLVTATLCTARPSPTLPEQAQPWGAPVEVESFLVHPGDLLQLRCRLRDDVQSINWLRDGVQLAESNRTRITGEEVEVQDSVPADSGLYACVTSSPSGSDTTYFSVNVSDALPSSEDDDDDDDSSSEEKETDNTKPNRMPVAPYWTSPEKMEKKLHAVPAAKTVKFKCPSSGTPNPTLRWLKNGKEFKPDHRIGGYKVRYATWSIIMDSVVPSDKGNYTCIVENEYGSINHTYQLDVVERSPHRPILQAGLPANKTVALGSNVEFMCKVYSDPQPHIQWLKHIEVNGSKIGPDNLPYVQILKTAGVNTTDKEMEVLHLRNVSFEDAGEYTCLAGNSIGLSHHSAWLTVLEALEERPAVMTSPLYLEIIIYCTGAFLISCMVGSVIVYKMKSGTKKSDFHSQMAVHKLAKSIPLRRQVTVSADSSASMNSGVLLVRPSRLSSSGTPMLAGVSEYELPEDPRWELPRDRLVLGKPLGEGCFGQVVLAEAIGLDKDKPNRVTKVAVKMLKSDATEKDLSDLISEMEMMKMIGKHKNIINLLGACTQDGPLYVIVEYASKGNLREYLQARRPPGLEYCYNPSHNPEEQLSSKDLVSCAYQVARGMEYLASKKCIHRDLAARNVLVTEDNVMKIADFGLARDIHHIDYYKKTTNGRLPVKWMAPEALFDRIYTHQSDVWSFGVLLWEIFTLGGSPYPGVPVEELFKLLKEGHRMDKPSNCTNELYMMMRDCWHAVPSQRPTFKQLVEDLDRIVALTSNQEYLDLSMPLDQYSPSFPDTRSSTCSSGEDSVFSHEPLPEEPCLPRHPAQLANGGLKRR
# UniProt Q9Y5S2, sequence (whole entry, looked up): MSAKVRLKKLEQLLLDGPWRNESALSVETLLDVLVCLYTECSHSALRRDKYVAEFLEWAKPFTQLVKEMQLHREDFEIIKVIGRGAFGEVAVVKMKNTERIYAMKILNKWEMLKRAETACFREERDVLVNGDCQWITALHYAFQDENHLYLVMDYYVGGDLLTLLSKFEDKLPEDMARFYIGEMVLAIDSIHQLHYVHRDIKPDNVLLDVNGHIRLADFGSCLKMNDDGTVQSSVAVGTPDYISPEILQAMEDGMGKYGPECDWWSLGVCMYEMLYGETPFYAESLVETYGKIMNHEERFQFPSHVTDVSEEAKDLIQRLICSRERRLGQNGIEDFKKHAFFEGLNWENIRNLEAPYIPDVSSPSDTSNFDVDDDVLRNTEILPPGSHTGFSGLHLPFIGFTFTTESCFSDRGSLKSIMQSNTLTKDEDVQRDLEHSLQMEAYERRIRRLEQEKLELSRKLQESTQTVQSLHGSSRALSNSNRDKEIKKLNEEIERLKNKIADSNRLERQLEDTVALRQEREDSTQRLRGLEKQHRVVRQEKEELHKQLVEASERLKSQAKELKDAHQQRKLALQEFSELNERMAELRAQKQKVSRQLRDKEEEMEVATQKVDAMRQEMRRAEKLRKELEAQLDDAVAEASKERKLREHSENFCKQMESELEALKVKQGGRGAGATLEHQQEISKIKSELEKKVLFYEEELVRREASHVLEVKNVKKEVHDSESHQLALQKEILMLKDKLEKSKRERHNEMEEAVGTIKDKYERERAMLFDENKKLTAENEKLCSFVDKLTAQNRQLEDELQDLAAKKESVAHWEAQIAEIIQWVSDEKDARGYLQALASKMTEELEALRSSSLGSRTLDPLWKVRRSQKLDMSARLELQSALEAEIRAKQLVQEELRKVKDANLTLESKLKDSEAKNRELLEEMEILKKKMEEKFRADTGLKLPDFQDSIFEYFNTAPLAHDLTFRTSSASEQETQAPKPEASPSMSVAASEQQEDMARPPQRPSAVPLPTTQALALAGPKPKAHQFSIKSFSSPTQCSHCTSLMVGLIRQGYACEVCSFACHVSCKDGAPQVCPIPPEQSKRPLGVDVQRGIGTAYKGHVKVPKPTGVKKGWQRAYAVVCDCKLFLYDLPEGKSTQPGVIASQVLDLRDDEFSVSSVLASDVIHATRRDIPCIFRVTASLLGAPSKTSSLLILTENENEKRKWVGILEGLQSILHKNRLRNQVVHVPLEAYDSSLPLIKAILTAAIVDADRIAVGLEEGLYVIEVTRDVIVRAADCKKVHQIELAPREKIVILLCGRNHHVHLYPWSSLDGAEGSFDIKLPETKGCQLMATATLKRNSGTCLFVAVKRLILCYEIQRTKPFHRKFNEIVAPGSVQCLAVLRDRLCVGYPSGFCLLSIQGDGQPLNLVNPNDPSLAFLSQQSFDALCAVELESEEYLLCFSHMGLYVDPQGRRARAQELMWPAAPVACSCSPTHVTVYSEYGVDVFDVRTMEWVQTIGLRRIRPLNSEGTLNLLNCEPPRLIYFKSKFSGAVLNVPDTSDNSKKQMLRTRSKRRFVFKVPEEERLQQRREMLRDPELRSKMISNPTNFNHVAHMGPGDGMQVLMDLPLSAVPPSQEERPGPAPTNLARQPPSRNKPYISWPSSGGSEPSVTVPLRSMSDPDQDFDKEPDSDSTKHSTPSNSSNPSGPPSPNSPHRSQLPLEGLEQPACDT
# UniProt P29597, sequence (whole entry, looked up): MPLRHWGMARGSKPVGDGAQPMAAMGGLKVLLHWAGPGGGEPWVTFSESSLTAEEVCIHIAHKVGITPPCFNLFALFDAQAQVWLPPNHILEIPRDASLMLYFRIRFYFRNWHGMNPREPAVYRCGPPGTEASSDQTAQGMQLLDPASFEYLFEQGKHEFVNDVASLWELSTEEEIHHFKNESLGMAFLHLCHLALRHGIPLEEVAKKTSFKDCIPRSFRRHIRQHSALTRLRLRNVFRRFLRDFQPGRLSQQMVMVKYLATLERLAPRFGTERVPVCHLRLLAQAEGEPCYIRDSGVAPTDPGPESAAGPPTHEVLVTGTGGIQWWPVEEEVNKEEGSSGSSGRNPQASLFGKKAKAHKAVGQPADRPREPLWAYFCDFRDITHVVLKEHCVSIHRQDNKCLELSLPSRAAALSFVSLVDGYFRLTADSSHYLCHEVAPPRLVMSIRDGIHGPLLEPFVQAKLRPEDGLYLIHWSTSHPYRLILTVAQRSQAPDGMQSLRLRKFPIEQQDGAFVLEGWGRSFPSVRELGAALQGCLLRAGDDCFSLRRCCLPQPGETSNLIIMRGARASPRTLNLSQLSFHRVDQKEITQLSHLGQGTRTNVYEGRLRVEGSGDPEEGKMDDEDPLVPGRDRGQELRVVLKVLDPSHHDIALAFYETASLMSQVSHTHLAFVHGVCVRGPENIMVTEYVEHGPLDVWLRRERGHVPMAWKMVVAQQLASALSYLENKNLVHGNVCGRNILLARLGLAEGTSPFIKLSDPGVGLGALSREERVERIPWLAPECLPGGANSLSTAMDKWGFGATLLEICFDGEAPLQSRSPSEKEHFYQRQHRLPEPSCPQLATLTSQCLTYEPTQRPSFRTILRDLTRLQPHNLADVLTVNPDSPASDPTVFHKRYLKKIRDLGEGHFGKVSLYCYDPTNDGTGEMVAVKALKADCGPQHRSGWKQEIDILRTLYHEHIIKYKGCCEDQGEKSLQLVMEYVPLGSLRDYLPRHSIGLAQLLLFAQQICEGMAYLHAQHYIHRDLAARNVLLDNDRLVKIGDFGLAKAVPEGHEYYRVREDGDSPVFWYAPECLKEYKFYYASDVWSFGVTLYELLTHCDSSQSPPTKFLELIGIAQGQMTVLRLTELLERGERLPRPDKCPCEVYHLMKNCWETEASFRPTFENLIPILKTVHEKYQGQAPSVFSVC

# Study 1 — observed: RNA clamping; technique: fluorescence polarization; concentration: concentration not given; with: FAM-labelled poly r(AG)8 RNA; reading: higher = more clamping
# Target: Eukaryotic initiation factor 4A-I (EIF4A1, Homo sapiens, UniProt P60842)
# UniProt P60842, sequence (whole entry, looked up): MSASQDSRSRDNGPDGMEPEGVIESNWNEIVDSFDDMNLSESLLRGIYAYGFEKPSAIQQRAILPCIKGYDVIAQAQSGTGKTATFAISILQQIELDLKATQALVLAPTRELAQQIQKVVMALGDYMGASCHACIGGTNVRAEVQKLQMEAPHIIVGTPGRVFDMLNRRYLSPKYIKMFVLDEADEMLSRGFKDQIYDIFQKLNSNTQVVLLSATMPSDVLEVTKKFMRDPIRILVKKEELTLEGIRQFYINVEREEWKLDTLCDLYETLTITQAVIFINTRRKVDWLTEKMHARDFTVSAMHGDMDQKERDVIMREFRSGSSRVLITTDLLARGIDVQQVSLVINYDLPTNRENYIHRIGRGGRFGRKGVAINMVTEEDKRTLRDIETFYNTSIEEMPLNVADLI
Structure (SMILES),fluorescence polarization change
COC(=O)[C@@H]1[C@@H](c2ccccc2)[C@]2(c3ccc(OC)cc3)Oc3cc(OC)cc(OC)c3[C@@]23OC(Cc2ccccc2)=N[C@@]13O,12.3 mP
COc1ccc([C@@]23Oc4cc(OC)cc(OC)c4[C@]2(O)[C@H](O)[C@H](C(=O)c2cc4ccccc4o2)[C@H]3c2ccccc2)cc1,6 mP
C=CCOc1nc(-c2ccccc2)nc2c1[C@@H](c1ccccc1)[C@]1(c3ccc(OC)cc3)Oc3cc(OC)cc(OC)c3[C@]21O,-2.8 mP
COc1ccc([C@@]23Oc4cc(OC)cc(OC)c4[C@]2(O)c2nc(C)[nH]c(=O)c2[C@H]3c2ccccc2)cc1,63.4 mP
C#CCNC(=O)CCCn1c(-c2ccccc2)nc2c(c1=O)[C@@H](c1ccccc1)[C@]1(c3ccc(OC)cc3)Oc3cc(OC)cc(OC)c3[C@]21O,26 mP
C#CCCCOC(=O)/C=C/Cn1c(-c2ccccc2)nc2c(c1=O)[C@@H](c1ccccc1)[C@]1(c3ccc(OC)cc3)Oc3cc(OC)cc(OC)c3[C@]21O,17.5 mP
COc1ccc([C@@]23Oc4cc(OC)cc(OC)c4[C@]2(OC)c2nc(-c4ccccc4)n(C)c(=O)c2[C@H]3c2ccccc2)cc1,-13 mP
COC(=O)[C@H]1[C@@H](O)[C@@]2(O)c3c(OC)cccc3N(C)[C@@]2(c2ccc(Br)cc2)[C@@H]1c1ccccc1,3.1 mP
COc1ccc([C@@]23Oc4cc(OC)cc(OC)c4[C@]2(O)[C@H](O)[C@H](C(=O)N(C)C)[C@H]3c2ccccc2)cc1,48 mP
COc1ccc([C@]23Oc4cc(OC)cc(OC)c4[C@@]4(O[C@@H]5CCCN5C(=O)[C@@H]4[C@H]2c2ccccc2)[C@@H]3O)cc1,-12.8 mP
COc1ccc([C@@]23Oc4cc(OC)cc(OC)c4[C@]2(O)C2=C(C(=O)N4CCC[C@H]4O2)[C@H]3c2ccccc2)cc1,42.7 mP
COC(=O)[C@H]1C(=O)[C@@]2(NCCCC(OC)OC)c3c(OC)cc(OC)cc3O[C@@]2(c2ccc(OC)cc2)[C@@H]1c1ccccc1,9.3 mP
COC(=O)[C@@H]1[C@@H](c2ccccc2)[C@]2(c3ccc(OC)cc3)Oc3cc(OC)cc(OC)c3[C@@]23NC(CCl)=N[C@@]13O,25.7 mP
COc1ccc([C@@]23Oc4cc(OC)cc(OC)c4[C@]2(O)c2nc(N4CCOCC4)[nH]c(=O)c2[C@H]3c2ccccc2)cc1,54.1 mP and 45 mP
CNCCOc1ccc2c(c1)O[C@@]1(c3ccc(Cl)cc3)[C@H](c3ccccc3)C[C@H](O)[C@@]21O,114 mP

# Study 2 — concentration: 1 µM
# Structure (SMILES): N#Cc1ccc(Nc2ccc3[nH]c(=O)[nH]c3c2)c(Cl)c1
target,test,remaining binding
"FGFR1 (Homo sapiens, UniProt P11362)","cell-free assay, competition with immobilised ligand",100%
"LIM domain kinase 2 (LIMK2, Homo sapiens, UniProt P53671)","cell-free assay, competition with immobilised ligand",100%
"Ribosomal protein S6 kinase alpha-6, C-terminal kinase domain (RPS6KA6, Homo sapiens, UniProt Q9UK32)","cell-free assay, competition with immobilised ligand",100%
"MKNK2 (Homo sapiens, UniProt Q9HBH9)","cell-free assay, competition with immobilised ligand",100%
"MAPK11 (Homo sapiens, UniProt Q15759)","cell-free assay, competition with immobilised ligand",100%
"FLT3 (Homo sapiens, UniProt P36888, D835V/ITD)","cell-free assay, competition with immobilised ligand",100%
"FLT3 (Homo sapiens, UniProt P36888, D835H)","cell-free assay, competition with immobilised ligand",100%
"CHUK (Homo sapiens, UniProt O15111)","cell-free assay, competition with immobilised ligand",100%
"Aurora kinase C (AURKC, Homo sapiens, UniProt Q9UQB9)","cell-free assay, competition with immobilised ligand",100%
"ACVR1B (Homo sapiens, UniProt P36896)","cell-free assay, competition with immobilised ligand",100%
"CDK13 (Homo sapiens, UniProt Q14004)","cell-free assay, competition with immobilised ligand",100%
"MAP4K2 (Homo sapiens, UniProt Q12851)","cell-free assay, competition with immobilised ligand",100%
"MET (Homo sapiens, UniProt P08581, Y1235D)","cell-free assay, competition with immobilised ligand",95%
"BMPR2 (Homo sapiens, UniProt Q13873)","cell-free assay, competition with immobilised ligand",91%
"AAK1 (Homo sapiens, UniProt Q2M2I8)",binding,100%
"STK32C (Homo sapiens, UniProt Q86UX6)","cell-free assay, competition with immobilised ligand",82%
"Non-receptor tyrosine-protein kinase TYK2, JH1 (TYK2, Homo sapiens, UniProt P29597)","cell-free assay, competition with immobilised ligand",100%
"HCK (Homo sapiens, UniProt P08631)","cell-free assay, competition with immobilised ligand",100%
"NEK5 (Homo sapiens, UniProt Q6P3R8)","cell-free assay, competition with immobilised ligand",100%
"CDK17 (Homo sapiens, UniProt Q00537)","cell-free assay, competition with immobilised ligand",100%
"CDK19 (Homo sapiens, UniProt Q9BWU1)",competition binding,77%
"AKT2 (Homo sapiens, UniProt P31751)","cell-free assay, competition with immobilised ligand",89%
"DYRK1B (Homo sapiens, UniProt Q9Y463)","cell-free assay, competition with immobilised ligand",83%
"STK11 (Homo sapiens, UniProt Q15831)","cell-free assay, competition with immobilised ligand",100%
"CDC42BPB (Homo sapiens, UniProt Q9Y5S2)","cell-free assay, competition with immobilised ligand",100%

# Study 3 — observed: enzyme activity; mode: inhibitor; concentration: 0.5 µM; reference: control
# Target: MAP kinase-activated protein kinase 5 (MAPKAPK5, Homo sapiens, UniProt Q8IW41)
# Target sequence (Q8IW41 1-473): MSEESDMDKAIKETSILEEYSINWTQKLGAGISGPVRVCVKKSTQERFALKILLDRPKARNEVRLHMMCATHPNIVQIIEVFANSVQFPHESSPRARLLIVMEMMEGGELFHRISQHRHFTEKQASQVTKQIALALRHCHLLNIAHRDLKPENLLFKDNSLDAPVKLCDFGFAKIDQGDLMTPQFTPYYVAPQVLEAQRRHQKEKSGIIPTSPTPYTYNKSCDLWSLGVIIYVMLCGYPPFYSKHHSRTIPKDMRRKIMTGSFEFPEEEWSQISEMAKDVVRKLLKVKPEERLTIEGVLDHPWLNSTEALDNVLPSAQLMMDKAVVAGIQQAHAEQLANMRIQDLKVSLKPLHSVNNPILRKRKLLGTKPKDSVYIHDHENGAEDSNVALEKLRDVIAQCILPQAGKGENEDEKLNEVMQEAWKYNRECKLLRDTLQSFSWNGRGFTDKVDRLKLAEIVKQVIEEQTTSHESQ
SMILES,remaining activity
Cc1cn(-c2cc(NC(=O)c3ccc(C)c(Nc4nccc(-c5cccnc5)n4)c3)cc(C(F)(F)F)c2)cn1,91.5%
CN(C)C[C@H]1CCn2c(c(C3=C(c4cn(C)c5ccccc45)C(=O)NC3=O)c3ccccc32)C1,95.4%
COc1cc2ncnc(Nc3cccc(Cl)c3)c2cc1OC,89.5%
COc1cc2ncnc(Nc3ccc(O)c(Br)c3)c2cc1OC,98.7%
COc1cc2c(cc1OC)-c1[nH]nc(Nc3cccc(F)c3)c1C2,82.3%
CCN(CC)CCNC(=O)c1c(C)[nH]c(/C=C2\C(=O)Nc3ccc(Cl)cc32)c1C,91.6%
CCN(CC)C(=O)c1ccc(Nc2nc(OCC3CCCCC3)c3[nH]cnc3n2)cc1,87.8%
O=C(NC(NC(=S)Nc1ccc(F)c([N+](=O)[O-])c1)C(Cl)(Cl)Cl)C(c1ccccc1)c1ccccc1 (stereo not drawn),102%
O=c1cc(-c2cccc3c2Sc2ccccc2S3)oc(N2CCOCC2)c1,94.5%
Cn1nc2c3c(cccc31)C(=O)c1ccccc1-2,94.5%
CN([C@@H](Cc1ccc(OS(=O)(=O)c2cccc3cnccc23)cc1)C(=O)N1CCN(c2ccccc2)CC1)S(=O)(=O)c1cccc2cnccc12,97%
O=C1c2ccccc2-c2n[nH]c3cccc1c23,91.3%
c1ccc(-c2cnc(Nc3ccc(OCCN4CCCC4)cc3)s2)cc1,83.4%
N#Cc1c(NC(=O)c2cccc3ccccc23)sc2c1CCCC2,96.6%
CCOc1nc(NC(=O)Cc2cc(OC)ccc2OC)cc(N)c1C#N,86.5%
Cc1cc2ncc(-c3ccccc3)nc2cc1C,95.1%
c1ccc(-c2[nH]ncc2-c2ccnc3ccccc23)nc1,95.6%
O=C(Nc1cccc(Nc2nccc(Nc3cccc(C(F)(F)F)c3)n2)c1)C1CC1,91.9%
Cc1nc2cc3nc(-c4cccs4)cnc3cc2n1C,100%
O=C1C(Cl)=C(N2C(=O)CCC2=O)C(=O)c2ccccc21,73.6%
N#C/C(=C\c1ccc(O)c(O)c1)C(=O)NCc1ccccc1,94.2%
Ic1cccc(CSc2nnc(-c3ccncc3)o2)c1,83.6%
Nc1cccc(-c2cc3c(Oc4cccc(O)c4)ncnc3[nH]2)c1,125%

# Study 4 — cell line: mouse MPNST tumor cells; technique: high-content nuclear imaging; measured: cell number; concentration: 10 µM; time: 12 h; setting: mean of 2 replicates; reference: plate mean; reading: higher = more cells
SMILES,nuclei count
CC(C)(CO)n1cc(C(=O)c2cncc(NC(=O)Cc3ccc(Cl)cn3)c2)c2cnc(N)nc21,2.64 z-score
C#CCCCCCCCCCCCCCCCC(=O)O,-0.185 z-score
CN(C)C/C=C/C(=O)Nc1cc2c(Nc3ccc(F)c(Cl)c3)ncnc2cc1O[C@H]1CCOC1,-5.25 z-score
CC(C)(C)NCC(O)COc1cccc2c1CC(O)C(O)C2 (stereo not drawn),-0.759 z-score
CC(=O)NO,0.744 z-score
O=C(Nc1cc2cc[nH]c2cn1)c1ccccc1,-0.17 z-score
COc1nc2sc(C(=O)NC3CC3)c(N)c2c(C)c1Cl,-0.514 z-score
COc1cc(N2CCN(C)CC2)ccc1Nc1ncc2c(n1)N(C)c1ccccc1C(=O)N2,-0.507 z-score
Cc1c(C(N)=O)nc2n1C[C@@H](COc1ccc(C(C)(C)C)cc1)O2,-0.214 z-score
O=C(CN1CCN(C(=O)c2ccco2)CC1)Nc1cc(C(F)(F)F)ccc1Cl,-0.0166 z-score
CCCCCCCCOc1ccc(-c2noc([C@@H]3CCC[N+]3=C(N)N)n2)cc1C(F)(F)F,-1.57 z-score
O=C(O)C[C@@]1(O)C[C@@H](CCCCCCc2ccc(Cl)cc2Cl)OC1=O,0.296 z-score
N#Cc1ccc(COC[C@H]2O[C@@H](n3c(NCc4ccc(Cl)c(Cl)c4)nc4c(N)ncnc43)[C@H](O)[C@@H]2O)cc1,1.42 z-score
O=C(NCc1ccc(F)cc1)C1CCN(S(=O)(=O)c2cc(Cl)cc(Cl)c2)CC1,0.307 z-score
c1ccc2[nH]c(-c3cscn3)nc2c1,-0.276 z-score and 0.153 z-score

# Excerpt of the above (study 1):
Structure (SMILES),fluorescence polarization change
COc1ccc([C@@]23Oc4cc(OC)cc(OC)c4[C@]2(O)c2nc(C)[nH]c(=O)c2[C@H]3c2ccccc2)cc1,63.4 mP
COC(=O)[C@@H]1[C@@H](c2ccccc2)[C@]2(c3ccc(OC)cc3)Oc3cc(OC)cc(OC)c3[C@@]23OC(Cc2ccccc2)=N[C@@]13O,12.3 mP
COc1ccc([C@@]23Oc4cc(OC)cc(OC)c4[C@]2(O)c2nc(N4CCOCC4)[nH]c(=O)c2[C@H]3c2ccccc2)cc1,54.1 mP and 45 mP
COC(=O)[C@@H]1[C@@H](c2ccccc2)[C@]2(c3ccc(OC)cc3)Oc3cc(OC)cc(OC)c3[C@@]23NC(CCl)=N[C@@]13O,25.7 mP
COc1ccc([C@@]23Oc4cc(OC)cc(OC)c4[C@]2(O)C2=C(C(=O)N4CCC[C@H]4O2)[C@H]3c2ccccc2)cc1,42.7 mP
COc1ccc([C@@]23Oc4cc(OC)cc(OC)c4[C@]2(O)[C@H](O)[C@H](C(=O)c2cc4ccccc4o2)[C@H]3c2ccccc2)cc1,6 mP
COC(=O)[C@H]1C(=O)[C@@]2(NCCCC(OC)OC)c3c(OC)cc(OC)cc3O[C@@]2(c2ccc(OC)cc2)[C@@H]1c1ccccc1,9.3 mP
C=CCOc1nc(-c2ccccc2)nc2c1[C@@H](c1ccccc1)[C@]1(c3ccc(OC)cc3)Oc3cc(OC)cc(OC)c3[C@]21O,-2.8 mP
C#CCCCOC(=O)/C=C/Cn1c(-c2ccccc2)nc2c(c1=O)[C@@H](c1ccccc1)[C@]1(c3ccc(OC)cc3)Oc3cc(OC)cc(OC)c3[C@]21O,17.5 mP
